Results from different studies.
Numbers after ± are the reported error.
Method: steady-state kinetics
B1: alanine racemase H127A/H166A/H200A (Geobacillus stearothermophilus, UniProt P10724); chain MNDFHRDTWAEVDLDAIYDNVENLRRLLPDDTHIMAVVKANAYGHGDVQVARTALEAGASRLAVAFLDEALALREKGIEAPILVLGASRPADAALAAQQRIALTVFRSDWLEEASALYSGPFPIHFALKMDTGMGRLGVKDEEETKRIVALIERHPHFVLEGLYTAFATADEVNTDYFSYQYTRFLHMLEWLPSRPPLVACANSAASLRFPDRTFNMVRFGIAMYGLAPSPGIKPLLPYPLKEAFSLHSRLVHVKKLQPGEKVSYGATYTAQTEEWIGTIPIGYADGWLRRLQHFHVLVDGQKAPIVGRICMDQCMIRLPGPLPVGTKVTLIGRQGDEVISIDDVARHLETINYEVPCTISYRVPRIFFRHKRIMEVRNAIGRGESSA
B2: enzyme A178R/D177A/P184R (Levilactobacillus brevis, UniProt Q03Q85); chain MKVTVVGCTHAGTFAIKQILAEHPDAEVTVYERNDVISFLSCGIALYLGGKVADPQGLFYSSPEELQKLGANVQMNHNVLAIDPDQKTVTVEDLTNHAQTTESYDKLVMTSGSWPIVPKIPGIDSDRVKLCKNWAHAQALIEDAKEAKRITVIGAGYIGAELAEAYSTTGHDVTLIARMARVMRKYFDADFTDVIEQDYRDHGVQLALGETVESFTDSATGLTIKTDKNSYETDLAILCIGFRPNTDLLKGKVDMAPNGAIITDDYMRSSNPDIFAAGDSAAVHYNPTHQNAYIPLATNAVRQGILVGKNLVKPTVKYMGTQSSSGLALYDRTIVSTGLTLAAAKQQGLNAEQVIVEDNYRPEFMPSTEPVLMSLVFDPDTHRILGGALMSKYDVSQSANTLSVCIQNENTIDDLAMVDMLFQPNFDRPFNYLNILAQAAQAKVAQSVNA
B3: SULT2A1 (Homo sapiens, UniProt Q06520); chain MSDDFLWFEGIAFPTMGFRSETLRKVRDEFVIRDEDVIILTYPKSGTNWLAEILCLMHSKGDAKWIQSVPIWERSPWVESEIGYTALSETESPRLFSSHLPIQLFPKSFFSSKAKVIYLMRNPRDVLVSGYFFWKNMKFIKKPKSWEEYFEWFCQGTVLYGSWFDHIHGWMPMREEKNFLLLSYEELKQDTGRTIEKICQFLGKTLEPEELNLILKNSSFQSMKENKMSNYSLLSVDYVVDKAQLLRKGVSGDWKNHFTVAQAEDFDKLFQEKMADLPRELFPWE
B4: protein Y93D (Thermus thermophilus, UniProt Q5SKR5); chain MSAPKPFVIGIAGGTASGKTTLAQALARTLGERVALLPMDHYYKDLGHLPLEERLRVNYDHPDAFDLALYLEHAQALLRGLPVEMPVYDFRADTRSPRRTPVRPAPVVILEGILVLYPKELRDLMDLKVFVDADADERFIRRLKRDVLERGRSLEGVVAQYLEQVKPMHLHFVEPTKRYADVIVPRGGQNPVALEMLAAKALARLARMGAA
B5: pol D141A/E143A/G245D (Thermococcus kodakarensis, UniProt P77933); chain 1 MILDTDYITEDGKPVIRIFKKENGEFKIEYDRTFEPYFYALLKDDSAIEEVKKITAERHGTVVTVKRVEKVQKKFLGRPVEVWKLYFTHPQDVPAIRDKIREHPAVIDIYEYDIPFAKRYLIDKGLVPMEGDEELKMLAFAIATLYHEGEEFAEGPILMISYADEEGARVITWKNVDLPYVDVVSTEREMIKRFLRVVKEKDPDVLITYNGDNFDFAYLKKRCEKLGINFALGRDGSEPKIQRMDDRFAVEVKGRIHFDLYPVIRRTINLPTYTLEAVYEAVFGQPKEKVYAEEITTAWETGENLERVARYSMEDAKVTYELGKEFLPMEAQLSRLIGQSLWDVSRSSTGNLVEWFLLRKAYERNELAPNKPDEKELARRRQSYEGGYVKEPERGLWENIVYLDFR; chain 2 SLYPSIIITHNVSPDTLNREGCKEYDVAPQVGHRFCKDFPGFIPSLLGDLLEERQKIKKKMKATIDPIERKLLDYRQRAIKILAN; chain 3 NSYYGYYGYARARWYCKECAESVTAWGREYITMTIKEIEEKYGFKVIYSDTDGFFATIPGADAETVKKKAMEFLKYINAKLPGALELEYEGFYKRGFFVTKKKYAVIDEEGKITTRGLEIVRRDWSEIAKETQARVLEALLKDGDVEKAVRIVKEVTEKLSKYEVPPEKLVIHEQITRDLKDYKATGPHVAVAKRLAARGVKIRPGTVISYIVLKGSGRIGDRAIPFDEFDPTKHKYDAEYYIENQVLPAVERILRAFGYRKEDLRYQKTRQVGLSAWLKPKGT
B6: Nudt8 (Mus musculus, UniProt Q9CR24); chain MLPDGLSAEDEQRCRQLLARTTARLRSRPAAAAVLVPLCLVRGVPALLYTLRSSRLVGRHKGEVSFPGGKCDPDDQDVIHTALRETQEELGLEVPKEHVWGVLQPVYDREKATIVPVLANVGPLDLQSLRPNLEEVDEVFEMSLAHLLQTQNQGYTHFCQGGHFSYTLPVFLHGPHRVWGLTAVITELTLKLLAPGFYQPSLAVPELPRG
B7: protein (Streptomyces coelicolor, UniProt P16544); chain MATQDSEVALVTGATSGIGLEIARRLGKEGLRVFVCARGEEGLRTTLKELREAGVEADGRTCDVRSVPEIEALVAAVVERYGPVDVLVNNAGRPGGGATAELADELWLDVVETNLTGVFRVTKQVLKAGGMLERGTGRIVNIASTGGKQGVVHAAPYSASKHGVVGFTKALGLELARTGITVNAVCPGFVETPMAASVREHYSDIWEVSTEEAFDRITARVPIGRYVQPSEVAEMVAYLIGPGAAAVTAQALNVCGGLGNY
B8: Paox H64Q (Mus musculus, UniProt Q8C0L6); chain MAFPGPRVLVVGSGIAGLGAAQKLCSHRAAPHLRVLEATASAGGRIRSERCFGGVVELGAHWIQGPSQDNPVFQLAAEFGLLGEKELSEENQLVDTGGHVALPSMIWSSSGTSVSLELMTEMARLFYGLIERTREFLNESETPMASVGEFLKKEISQQVASWTEDDEDTRKRKLAILNTFFNIECCVSGTHSMDLVALAPFGEYTVLPGLDCILAGGYQGLTDRILASLPKDTVAFDKPVKTIHWNGSFQEAAFPGETFPVLVECEDGARLPAHHVIVTVPLGFLKEHQDTFFEPPLPAKKAEAIKKLGFGTNNKIFLEFEEPFWEPDCQFIQVVWEDTSPLQDTALSLQDTWFKKLIGFLVQPSFESSHVLCGFIAGLESEFMETLSDEEVLLSLTQVLRRVTGNPQLPAAKSVRRSQWHSAPYTRGSYSYVAVGSTGDDLDLMAQPLPEDGTGTQLQVLFAGEATHRTFYSTTHGALLSGWREADRLVSLWDSQVEQSRPRL
UniProt P19337, sequence (whole entry, looked up): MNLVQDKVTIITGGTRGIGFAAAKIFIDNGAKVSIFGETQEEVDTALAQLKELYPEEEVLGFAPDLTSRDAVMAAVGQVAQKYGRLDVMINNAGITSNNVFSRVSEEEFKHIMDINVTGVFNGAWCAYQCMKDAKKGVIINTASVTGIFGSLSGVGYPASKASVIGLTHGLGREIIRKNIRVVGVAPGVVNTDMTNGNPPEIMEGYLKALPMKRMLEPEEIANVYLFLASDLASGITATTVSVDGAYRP

B1  kcat/Km (C[C@@H](N)C(=O)O; pH 9, room temperature, together with: NAD+ 10 mM): 360 M⁻¹ s⁻¹
enzyme (Triticum aestivum, UniProt A0A6J4BJG4)  kcat/Km (O=C1[C@@H](O[C@@H]2O[C@H](CO)[C@@H](O)[C@H](O)[C@H]2O)Oc2ccccc2N1O; pH 7.2, 30 °C): 1600 M⁻¹ s⁻¹
B2 (enzyme A178R/D177A/P184R)  kcat/Km (NC(=O)C1=CN([C@@H]2O[C@H](COP(=O)(O)OP(=O)(O)OC[C@H]3O[C@@H](n4cnc5c(N)ncnc54)[C@H](O)[C@@H]3O)[C@@H](O)[C@H]2O)C=CC1; pH 7.5, 37 °C, per site): 52000 ± 21000 M⁻¹ s⁻¹
B3 (SULT2A1)  kcat/Km (C[C@]12CC[C@H](O)CC1=CC[C@@H]1[C@@H]2CC[C@]2(C)C(=O)CC[C@@H]12; pH 7.4, 25 °C): 540000 M⁻¹ s⁻¹
B4 (protein Y93D)  kcat/Km (Nc1ccn([C@@H]2O[C@H](CO)[C@@H](O)[C@H]2O)c(=O)n1; pH 7.2, 25 °C, KCl 100 mM, together with: ATP 100–200 µM): 5800 M⁻¹ s⁻¹
B5 (pol D141A/E143A/G245D)  kcat/Km (Nc1nc2c(ncn2[C@H]2C[C@H](O)[C@@H](COP(=O)(O)OP(=O)(O)OP(=O)(O)O)O2)c(=O)[nH]1; pH 8, 55 °C): 760000 ± 100000 M⁻¹ s⁻¹
B6 (Nudt8)  kcat/Km (CC(=O)SCCNC(=O)CCNC(=O)[C@H](O)C(C)(C)COP(=O)(O)OP(=O)(O)OC[C@H]1O[C@@H](n2cnc3c(N)ncnc32)[C@H](O)[C@@H]1OP(=O)(O)O; pH 8.5, together with: 2 mM Mn2+): 2670 M⁻¹ s⁻¹
enzyme (Neurospora crassa, UniProt Q7SCU7)  kcat/Km (Nc1ncnc2c1ncn2[C@@H]1O[C@H](COP(=O)(O)OP(=O)(O)OP(=O)(O)O)[C@@H](O)[C@H]1O; pH 7.5, 37 °C): 7700 M⁻¹ s⁻¹
B7 (protein)  kcat/Km (O[C@H]1CCCc2ccccc21; pH 7.4, phosphate 400 mM, NADPH 250 µM printed, together with: NADP+, reverse reaction): 35 ± 6 M⁻¹ s⁻¹
B8 (Paox H64Q)  kcat/Km (CC(=O)NCCCNCCCCNCCCN; pH 10, 30 °C): 84000 ± 9000 M⁻¹ s⁻¹
α-amino ester hydrolase (Xanthomonas campestris, UniProt Q8P8K4)  kcat/Km (CC1=C(C(=O)O)N2C(=O)[C@@H](NC(=O)[C@H](N)c3ccccc3)[C@H]2SC1; pH 7, 25 °C, phosphate 100 mM): 95000 M⁻¹ s⁻¹
alanine aminopeptidase (Neisseria meningitidis, UniProt Q9JYV4)  kcat/Km (NC(=O)Cc1cc(=O)oc2cc(NC(=O)[C@@H](N)Cc3ccc4ccccc4c3)ccc12; pH 7.5, 37 °C): 51000 ± 7000 M⁻¹ s⁻¹
BaiA2 (Clostridium scindens, UniProt P19337)  kcat/Km (C[C@H](CCC(=O)SCCNC(=O)CCNC(=O)[C@H](O)C(C)(C)COP(=O)(O)OP(=O)(O)OC[C@H]1O[C@@H](n2cnc3c(N)ncnc32)[C@H](O)[C@@H]1OP(=O)(O)O)[C@H]1CC[C@H]2[C@@H]3[C@H](O)C[C@@H]4CC(=O)CC[C@]4(C)[C@H]3CC[C@]12C; pH 8.7, 37 °C, together with: NADH): 151000 M⁻¹ s⁻¹

Excerpt of the above:
B1  kcat/Km (C[C@@H](N)C(=O)O; pH 9, room temperature, together with: NAD+ 10 mM): 360 M⁻¹ s⁻¹
